Measured values gathered from unrelated publications.
Lines come from different studies, so protocols differ. Numbers after ± are the reported error.

Compound	sample	tested at	added	half-life [h]
COc1cccc(-c2cc(-n3nncc3-c3ccc(C(F)(F)F)cc3)ccc2OC)c1	human liver microsomes	–	–	1.37 ± 0.16
Cc1ccccc1OCCCSCc1nc2ccccc2[nH]1	CD-1 mouse liver microsomes 0.5 mg/mL	10 µM	–	0.102
COc1ccc(CC(=O)OCc2ccc(-n3cccn3)cc2)cc1F	human plasma	–	–	> 2.5
CC(=O)N1CC=C(c2cc3c(Nc4cc5ncsc5cc4F)ncnc3s2)CC1	human liver microsomes	1 µM	–	1.93
Cc1c(-c2ccccc2)nn2c(=O)cc(-c3cccc(-c4nnn[nH]4)c3)[nH]c12	human liver microsomes	1 µM	–	3
CCOc1ccccc1Nc1nnc(SCC(=O)Nc2cc(F)ccc2F)s1	human plasma	–	–	> 2
Cc1n[nH]c(C)c1CCOC(=O)c1cccc2c1oc(=O)n2C	PBS	–	–	> 5
COc1ccc2c(c1)CN(C(=O)OC(C(F)(F)F)C(F)(F)F)C2	rat liver microsomes	–	NADPH	0.1
O=C(NC1CC=C(c2cc3c(Nc4cc5ncsc5cc4F)ncnc3s2)CC1)NC1CCCCC1 (stereo not drawn)	human liver microsomes	1 µM	–	> 2
O=C(CC1Cc2ccccc2C1)N[C@H](CN1CCC1)[C@H](O)c1ccc(OC(F)(F)F)cc1	mouse liver microsomes	1 µM	–	> 1
CSc1cc(NC(=O)c2ccccn2)ccc1Cl	rat liver microsomes	–	–	0.109
O=C(O)c1cccc(-c2nc(-c3ccccc3F)c3sccn23)c1	mouse liver microsomes	1 µM	–	0.378

Excerpt of the above:
Compound	sample	tested at	added	half-life [h]
CCOc1ccccc1Nc1nnc(SCC(=O)Nc2cc(F)ccc2F)s1	human plasma	–	–	> 2
Cc1n[nH]c(C)c1CCOC(=O)c1cccc2c1oc(=O)n2C	PBS	–	–	> 5
